Measurements from different studies.
Parts stem from different laboratories: compare values within a part only.

Series 1 — technique: RNA Bind-n-Seq; form: RNA; sample: in vitro; tested at: not given; reference: input RNA pool; reading: higher = stronger binding
Target: RING finger protein unkempt homolog, zinc fingers 1-6, GST-SBP tag (UNK, Homo sapiens, UniProt Q9C0B0, residues 30-357)
UniProt Q9C0B0, sequence (30-357, looked up): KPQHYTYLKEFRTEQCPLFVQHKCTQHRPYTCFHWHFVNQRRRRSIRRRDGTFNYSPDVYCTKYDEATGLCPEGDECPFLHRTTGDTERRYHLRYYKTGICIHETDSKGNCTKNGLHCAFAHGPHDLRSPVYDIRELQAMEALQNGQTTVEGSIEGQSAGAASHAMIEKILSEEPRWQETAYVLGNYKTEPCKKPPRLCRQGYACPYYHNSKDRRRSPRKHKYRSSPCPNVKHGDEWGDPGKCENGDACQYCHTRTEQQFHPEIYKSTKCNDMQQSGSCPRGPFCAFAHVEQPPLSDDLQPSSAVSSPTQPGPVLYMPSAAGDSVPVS
Setting: RNA with constant flanks, human-mouse chimeric sites, ends assumed
Shared flanks, not repeated: GGGAGUUCUACAGUCCGACGAUC … CAACAGAGGAUUGAGCAUCA
Oligonucleotide	bound/input enrichment [ratio]
UAAAUUAGGGCUGCCGUUUUCUGUUUCUCCCUGGGCUGCGGAAAGCCAGAAGAUUUUAUCUAGUUUGUACAAGGCUGCUGGUGUUCCCUCCCUCCCGCCACGAGGGUGUUUUUGGCUGCA	1
GGCCUGGGACCGUCCUGGGCUAGUACAAAUAGCGGCAGUGGAGGCUCGAGAGGAAAGUUUGUUAGUGGAGGCAGUGGUAGAGGCCGUAUGUACGCUCCCUUUACUCGAUAGAUGUGUUCU	0.401
GUACUGCAGCAGCAGGGAAAACUGCAGGAAGCACUGAUGCAUUAUAAGGAGGCUAUUCGAAUCAGUCCUACCUUUGCUGAUGCUUAUUCUAAUAUGGGAAACACUCUAAAGGAGAUGCAG	0.338
AGAGAAAUGAGAAAGAAUCUCACACAAGAAGAGAUGCAAAGAAUGUCUACUAGAGUCCUUUUGGCGACUCUUUCCAUUCCUAUUACUCCUGAGCGAACUGAUAUUGCUCGACUUCUGGAU	0.254
GAUGAUAAUCACACAAACAAGUCACUGUUAUGUGACCAGCCUUGGGAUUCUUUUCCUGAUUAAUAUUCUCCCUGGAACCACUGGUCAAGGGGAAUCAAGACGACAAGAACCUGGGGACUU	0.15
GAAUCCUACUCAGGCGGAUUUUGCAACACCAAGCUCACAGCAGCAGCAUCUUAGUCACAGUAGGGUAGUUUUGGGGCAAUAUUGCCAGGGUUUUAUUCACAUGCAGGUUUUGAAAAUGUA	4.12
AUGGAACAUUUUGAUGCGUCACUCAGUACCUAUUUCAAGGCCUUCCUGGGCCCCCGAGAUACAAGAGUCAAAGGAUGGUUUCUUCUGGACAAUUACAUCCCUACGUUUGUCUGUUCUGUU	0.135
AACUUCGUGCAUCGGUUUCCCUUUGUAGCUGUUUCAAUUGGCUUCCUUGUGAAUAAAAAGAUAGAAUUUGGAAUUGUGUACAGCUGUGUGGAAGGCAAGAUGUACACCGGCAGGAAAGGG	2.55
CUCAUGGCUGCAGAAACAGGAAGUGGAAAAACUGGUGCUUUUAGUAUUCCCGUUAUCCAGAUAGUGUAUGAAACUCUGAAAGACCAACAGGAAGGAAAGAAAGGGAAAACAACAAUUAAA	0.887
GCACUUCUCAAAUACUGGCCAAAGACUCACAGUCCAAAAGAAGUAAUGUUCUUAAAUGAAUUAGAAGAAAUUUUAGAUGUCAUUGAACCAUCAGAGUUUGUGAAGAUCAUGGAACCCCUU	0.6
GAAUCCUACUCAGGCGGUCCCACAACAACCAAGCUCACAGCAGCAGCAUCUUAGUCACAGUAGGGUAGUUUUGGGGCUCUGUGGCCAGGGUUUUAUUCACAUGCAGGUUUGGAAAAUGUA	0.818

Series 2 — technique: RNA Bind-n-Seq; form: RNA; sample: in vitro; tested at: 365 nM; reference: no-protein control; reading: higher = stronger binding
Target: RNA binding protein fox-1 homolog 2, RRM domain, GST-SBP tag (RBFOX2, Homo sapiens, UniProt O43251-10, residues 100-194)
Setting: natural RNA segment, single round, ends assumed
Shared flanks, not repeated: GGGAGUUCUACAGUCCGACGAUC … UGGAAUUCUCGGGUGCCAA
Construct (chain): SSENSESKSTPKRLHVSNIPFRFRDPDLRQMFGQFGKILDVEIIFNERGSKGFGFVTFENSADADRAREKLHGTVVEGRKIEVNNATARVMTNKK
Oligonucleotide	RBNS enrichment (R)
UGUGUGAAACUUAUAUUUGUAUGUAGCUUUCUAGGAAAAUUUUACAGACACUUAAAGUAUUUAUGCUUAAGUGUGCAUUUUUUUAUUCUAAUAUUCCUUCUAGUCAGUGG	1.33
UGAGAUCGAUCUGUCCUGGCAGUUAACACGAUGUGCAACAGUGUGUUAGCAUGGAACAGAACGCUUUUCACAAAACAAAGGACUGUUUUACAAAUGAUUAUUCCGACAGU	0.283
CAGCAGCGAGGCCACUGAAGAGCAACACACCCAGUGUGUGUCAGUGUUCUCAGCCCAGCCCUCCCUGAGAACCCACAUUUGGCUCGUAUGUAUGUGAGCACGUUGGGGUG	1.07
AAACCAACAAUGAAUUCAAUAUACCAGGAAAUAGAUUGUUAGUAGGGAAUGGCAUUAAAGGAAAAAAAAAUUAGAUAAGAUGCAUUCAAGGAAUAAUUACUUUCACUCUG	0.568
UGACCUUUGCUGAGCUCAGUGACUCUUCAGUGUUAAAACUGAACCCCAGAGGGGAUUCUCCAUGCCAGAUCCGCUGCAAAUUAAAUAAUACCAAUUUUCUAGAGUCCCUC	0.361
UUACUCAAUUCCAGAUAUGGCCGAGGAUGGGUUGAUCACAGACGAUUAGCUGUAAACAGUUUUCGAUAUUUUGGAUAUGGCCAAAAGUCUUUUGAAUCUAAAAUCUUGGA	0.624
AAAAGACAAUGUUAGUAAACUACAGGGAAGCACUGGAAGGGUAAAGCUCAGGUUAAUACAAGCUGAUUGUUCAGUGUCUUAAGACUUAUGCUGUUUCCAAAAGGCCAAAU	0.451
CUGUCUUGCCAGAUUACCGACACUGUCACUUGACCAAUACUGACCCUCUUUACCUCGCCCACGCGGACACACGCCUCCUGUAGUCGCUUUGCCUAUUGAUGUUCCUUUGG	1.79
GUAUUUUAGUUGCAGCCUAUUUUUAAUAAACUUUGUAUCUAUUUAAGUGUAUUUGCUAUUGUUUUCAAAGUGCUGACAAAGUUUAUAUUUGUAAUGCCAGCAUUCCUCUU	0.93

Series 3 — technique: aptamer microarray, sandwich; form: DNA with 2'F-ANA; sample: in vitro; tested at: 200 nM; together with: Cy3 exosite-II aptamer, 400 nM; reading: higher = stronger binding; oligonucleotide: GGTTGGTGTGGTTGG
Target: Prothrombin, mature alpha-thrombin (F2, Homo sapiens, UniProt P00734)
Setting: whole 15-mer aptamer, many near background
Modification	mean fluorescence intensity [a.u.]
2'F-ANA at 8 10 12 13 14 15	95
2'F-ANA at 1 2 5 6 8 11 14	49.7
2'F-ANA at 2 3 5 7 11 12 13 15	114
2'F-ANA at 6 8 9 13 14 15	153
2'F-ANA at 1 2 3 4 5 6 7 10 12 13 14	46.6
2'F-ANA at 1 2 3 5 6 7 8 9 13 14	48.9
2'F-ANA at 2 4 6 7 8 9 11 14	81.9
2'F-ANA at 3 8 9 10 11 12 13	558
2'F-ANA at 2 3 5 6 8 9 11 12 14 15	61.7
2'F-ANA at 3 5 7 8 9 11 13 15	101
2'F-ANA at 12 13 15	785
2'F-ANA at 4 5 6 7 8 9 11 12 15	105
2'F-ANA at 3 5 7 8 10 12 13 14	51.4
2'F-ANA at 1 3 4 5 6 8 12 13 14	50.2
2'F-ANA at 2 9 10 11 12 13	151
2'F-ANA at 1 3 4 7 10 12 14 15	56.4
2'F-ANA at 1 5 6 9 11 12 13	66
2'F-ANA at 1 2 3 5 7 8 11	54.4
2'F-ANA at 2 6 8 10 12 14	88.7

Series 4 — technique: protein-binding microarray; form: double-stranded DNA, one strand shown; sample: in vitro; tested at: 940 nM top; setting: 60-bp whole probe; together with: salmon DNA 0.4 mg/ml; reference: random background probes; reading: higher = stronger binding; shared flanks, not repeated: GCCTAGCAC … GTCTTGATTCGCTTGACGCTGCTG
Target: Interferon regulatory factor 5, full length, phosphomimetic (IRF5, Homo sapiens, UniProt Q13568-2, residues 1-514, S451D/S453D/S456D/S462D)
Oligonucleotide	fitted relative affinity [z-score]
TTAGGTTTCGGAGTGGGTTAGTGCTAG	6.73
GACAATATCAGTATCGAGACGTGCTAG	2.2
TTCATTATTGTCTTCCCCATGTGCTAG	1.25
GACGATTTTAGTATCGAGACGTGCTAG	3.44
TTAGGTCTCCTACTGCTTAAGTGCTAG	-0.195
GTAGGTATCGACACTGGGTTAGTGCTA	4.1
GACGGTTCCGGCTTCGGGACGTGCTAG	0.684
TGTCTGTCTGTCACCCGGACGTGCTAG	0.508
TTAGAACTGGGGTATCGATTAGTGCTA	2.67
TTAGATTTCGGGACTGGAATAGTGCTA	0.297
GACGATATCGTGTTTCGAGACGTGCTA	0.529
GACGGACTGCTTTTCCTGCCGTGCTAG	-0.494
GACGGTATCGGACTGGGGAAGTGCTAG	2.88
TTAGGTATCGACAGTGGGTTAGTGCTA	4.53
GGCGGTATCCTTCTCCTGACGTGCTAG	0.603
ACTGATTTCCACTTTCTTAAGTGCTAG	1.67
CTGGGGGCAGTTTCATGGCCGTGCTAG	2.19
TTAGGCCTCGGTTTCGGTTAGTGCTAG	7.24
CCATGTTGCAGACTCGAAGGGTGCTAG	-0.693
TTAGGACCGCTTCTCCTTTAGTGCTAG	-0.122
GGACTGTCAGCCACTTTTTGGTGCTAG	-0.0256
TGCATCGTAAGCAAAAATGAGTGCTAG	-0.515
TCAACCTTGAACTTCGGACTGTGCTAG	-0.202
GACGATATCAGTTTCGACACGTGCTAG	4.84
TTAGGTCTCCATTTCCTTTAGTGCTAG	0.754

Excerpt of the above (series 4):
Oligonucleotide	fitted relative affinity [z-score]
GACGGTTCCGGCTTCGGGACGTGCTAG	0.684
GGCGGTATCCTTCTCCTGACGTGCTAG	0.603
GTAGGTATCGACACTGGGTTAGTGCTA	4.1
GACAATATCAGTATCGAGACGTGCTAG	2.2
ACTGATTTCCACTTTCTTAAGTGCTAG	1.67
TTAGGTTTCGGAGTGGGTTAGTGCTAG	6.73
TGTCTGTCTGTCACCCGGACGTGCTAG	0.508
TCAACCTTGAACTTCGGACTGTGCTAG	-0.202
